Measurements of several laboratories.
Parts stem from different laboratories: compare values within a part only.

Block 1 — method: RNA Bind-n-Seq; form: RNA; sample: in vitro; concentration: 1 µM; notes: whole 134-nt RNA, ends assumed; together with: 150 mM KCl; baseline: input library; reading: higher = stronger binding; measurement: log2 enrichment
Target: Ras GTPase-activating protein-binding protein 1, C-terminal RGG region (G3BP1, Homo sapiens, UniProt Q13283)
UniProt Q13283, sequence (whole entry, looked up): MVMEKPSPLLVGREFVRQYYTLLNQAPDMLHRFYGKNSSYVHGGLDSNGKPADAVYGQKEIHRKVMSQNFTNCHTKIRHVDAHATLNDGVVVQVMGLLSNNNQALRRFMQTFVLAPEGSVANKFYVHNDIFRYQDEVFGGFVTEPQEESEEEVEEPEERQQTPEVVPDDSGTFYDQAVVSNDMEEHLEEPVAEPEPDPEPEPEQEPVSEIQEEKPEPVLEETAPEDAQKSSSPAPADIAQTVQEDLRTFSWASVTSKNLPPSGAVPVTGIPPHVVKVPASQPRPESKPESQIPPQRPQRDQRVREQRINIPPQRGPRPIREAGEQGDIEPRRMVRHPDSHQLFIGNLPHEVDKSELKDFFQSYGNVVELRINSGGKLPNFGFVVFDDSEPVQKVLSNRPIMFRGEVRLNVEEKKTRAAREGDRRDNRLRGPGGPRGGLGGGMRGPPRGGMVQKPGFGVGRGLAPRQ
All sequences stand within: GGGAGUUCUACAGUCCGACGAUC … UGGAAUUCUCGGGUGUCAAGG
ACCAUGAAAGUGGGCAUCUUUGGGAAGUGGGGCAAGGGGGGGAUAGGGAGGGGGGUAACACUUUGGGAACAGGUGGUCCCAGGUCGUUUC: -0.838
CUCAAGUCCUGUGCUACACAUCGUAUGUACCGAAUCGGGUUUGGGUGGGUGGGAAAGUAUUAUGUUACGCCGUUCGGAUCUGCACUUCCA: 2.06
UUUUAGAAAGAGAAGGGGAAGAAAAUGAAGCCUUACAUAAGAUGAUUGCAAACGAGCAAAAGACUUCUCUCCCAAAUUUGUUCCAGGAUA: -2.05
UCAAGUCCUGUGCUACACAUCGUAUGUACCGAAUCGGAGGAAAGGUUUUUUUGGAAAGUAUUAUGUUACGCCGUUCGGAUCUGCACUUCC: -1.43
CCUCAAGUCCUGUGCUACACAUCGUAUGUACCGAAUCGGGCCGGCCGGCCGGAAAGUAUUAUGUUACGCCGUUCGGAUCUGCACUUCCAG: -0.913
AAGUCCUGUGCUACACAUCGUAUGUACCGAAUCGGAAAAAAAGGAAAGGAAAAAGGAAAGUAUUAUGUUACGCCGUUCGGAUCUGCACUU: -2.06

Block 2 — method: protein binding microarray; form: double-stranded DNA, one strand shown; sample: in vitro; concentration: not given; baseline: not given; reading: higher = stronger binding; measurement: E-score
Target: Histone acetyltransferase KAT6A, winged helix 2, GST fusion (KAT6A, Homo sapiens, UniProt Q92794, residues 85-181)
Notes: 8-mer, flanks averaged, mean of 2 arrays, mostly near background
Target sequence (chain): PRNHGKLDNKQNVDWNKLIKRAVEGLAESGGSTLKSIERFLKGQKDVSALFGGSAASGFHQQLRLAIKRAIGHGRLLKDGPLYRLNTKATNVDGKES
GTGCTTCA: 0.0627
GCCTGCCC: 0.112
CTGCGTTA: -0.00637
GCTAAGAC: 0.127
ACTTACTG: -0.23
ATACACGC: -0.0402
AGGCTAAC: -0.0712
ACTTCACG: -0.0894

Block 3 — method: universal PBM; form: double-stranded DNA, one strand shown; sample: in vitro; concentration: 600 nM; reading: higher = stronger binding; measurement: E-score
Target: Sal-like protein 4, full length isoform A (SALL4, Homo sapiens, UniProt Q9UJQ4, residues 1-1053)
UniProt Q9UJQ4, sequence (whole entry, looked up): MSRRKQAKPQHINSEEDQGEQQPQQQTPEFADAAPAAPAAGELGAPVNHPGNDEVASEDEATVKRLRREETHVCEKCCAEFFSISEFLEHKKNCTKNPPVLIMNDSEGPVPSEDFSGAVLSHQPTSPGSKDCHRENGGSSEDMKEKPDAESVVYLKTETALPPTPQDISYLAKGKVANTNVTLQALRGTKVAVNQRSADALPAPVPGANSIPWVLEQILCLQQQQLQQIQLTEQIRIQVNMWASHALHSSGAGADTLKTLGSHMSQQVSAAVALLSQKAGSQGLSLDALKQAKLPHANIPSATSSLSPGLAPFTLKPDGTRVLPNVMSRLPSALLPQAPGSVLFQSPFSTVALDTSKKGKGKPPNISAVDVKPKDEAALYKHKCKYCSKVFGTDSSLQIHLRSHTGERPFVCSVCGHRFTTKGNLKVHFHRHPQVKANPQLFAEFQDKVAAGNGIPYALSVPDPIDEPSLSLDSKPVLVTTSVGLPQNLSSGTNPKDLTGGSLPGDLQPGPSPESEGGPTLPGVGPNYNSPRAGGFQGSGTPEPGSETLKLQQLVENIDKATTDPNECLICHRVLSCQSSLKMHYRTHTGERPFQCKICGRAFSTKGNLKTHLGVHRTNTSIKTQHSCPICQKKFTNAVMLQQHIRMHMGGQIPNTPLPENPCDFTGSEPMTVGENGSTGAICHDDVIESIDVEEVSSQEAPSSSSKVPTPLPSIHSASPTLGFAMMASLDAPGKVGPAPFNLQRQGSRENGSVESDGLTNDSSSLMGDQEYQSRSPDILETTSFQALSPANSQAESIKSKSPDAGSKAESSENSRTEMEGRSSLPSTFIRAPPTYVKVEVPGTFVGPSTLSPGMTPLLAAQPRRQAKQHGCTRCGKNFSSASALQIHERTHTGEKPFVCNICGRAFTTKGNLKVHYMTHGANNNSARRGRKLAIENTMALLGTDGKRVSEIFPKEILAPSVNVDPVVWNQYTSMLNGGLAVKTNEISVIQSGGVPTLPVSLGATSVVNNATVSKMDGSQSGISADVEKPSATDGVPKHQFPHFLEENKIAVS
Notes: 8-mer, flanks averaged, mean of replicates
TCTGAGCA: -0.0612
CAGTAATC: -0.053
AGAGTATC: 0.148
GCAGCGAC: -0.367

Mixed results
PhoQ, residues 284 288 289 292 302 303 AEGLLW  fold induction (PhoP, residues 12 14 15 18 19 IQFRS (Escherichia coli, UniProt P23836); Sort-seq, item: YFP reporter; E. coli; PhoQ-PhoP variant library, together with: 10 µM Mg2+; baseline: high Mg2+ state, higher = stronger signaling): 17.8
